Assay results pooled from the literature.
Each numbered part is a random draw from the data of one study; scales do not carry over between parts. Several values in a cell are separate wells, animals, samples, runs or records.
Chain of UniProt P28223 (whole entry, looked up): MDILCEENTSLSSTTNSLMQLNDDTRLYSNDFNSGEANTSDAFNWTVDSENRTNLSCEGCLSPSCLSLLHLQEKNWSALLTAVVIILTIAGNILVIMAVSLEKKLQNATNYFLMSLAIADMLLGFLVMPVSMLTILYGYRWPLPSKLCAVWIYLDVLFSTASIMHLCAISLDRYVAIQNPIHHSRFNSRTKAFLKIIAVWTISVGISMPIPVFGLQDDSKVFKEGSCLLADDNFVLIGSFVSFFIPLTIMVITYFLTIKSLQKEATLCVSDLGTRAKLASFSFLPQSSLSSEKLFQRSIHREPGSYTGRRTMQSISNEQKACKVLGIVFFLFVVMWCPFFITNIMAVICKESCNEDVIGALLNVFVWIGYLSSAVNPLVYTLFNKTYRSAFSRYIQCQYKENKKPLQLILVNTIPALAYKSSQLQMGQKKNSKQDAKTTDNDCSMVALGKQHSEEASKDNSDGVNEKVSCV
Chain of UniProt P62344 (whole entry, looked up): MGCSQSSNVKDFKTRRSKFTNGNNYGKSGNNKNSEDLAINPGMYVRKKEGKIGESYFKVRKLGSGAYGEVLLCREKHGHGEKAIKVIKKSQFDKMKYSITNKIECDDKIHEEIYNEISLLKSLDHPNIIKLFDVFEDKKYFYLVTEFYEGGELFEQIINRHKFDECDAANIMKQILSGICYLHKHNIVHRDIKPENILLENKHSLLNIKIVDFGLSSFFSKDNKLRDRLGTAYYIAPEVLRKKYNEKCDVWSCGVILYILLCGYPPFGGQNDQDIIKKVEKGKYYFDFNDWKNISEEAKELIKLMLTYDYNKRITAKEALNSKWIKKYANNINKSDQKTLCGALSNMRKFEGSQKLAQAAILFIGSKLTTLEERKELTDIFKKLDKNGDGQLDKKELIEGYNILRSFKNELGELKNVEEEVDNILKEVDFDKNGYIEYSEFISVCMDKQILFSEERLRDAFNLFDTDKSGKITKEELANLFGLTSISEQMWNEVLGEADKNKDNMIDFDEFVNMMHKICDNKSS

Sample 1
Cell line: HEK-293T
Effect on: pseudovirus infection
Technique: FDA-approved drug library counter-screen
Organism: VSV pseudotyped with VSV-G
Concentration: 10 µM
Time: 16 h
Relative to: vehicle-treated
SMILES	GFP-positive cells
Clc1ccc(C(Cn2ccnc2)OCc2csc3c(Cl)cccc23)c(Cl)c1 (centres unmarked)	121%
C[C@H]1COc2c(N3CCN(C)CC3)c(F)cc3c(=O)c(C(=O)O)cn1c23	100%
COc1ccc(CN=c2[nH]c(N3CCC[C@H]3CO)ncc2C(=O)NCc2ncccn2)cc1Cl	103%
COc1ccc2nc(SCc3ncc(C)c(OC)c3C)[nH]c2c1	127%
CCCCC(CC)COC(=O)C(C#N)=C(c1ccccc1)c1ccccc1 (centres unmarked)	114%
Cc1cccc(Nc2ccccc2C(=O)O)c1C	73.8%
CCCN(CCC)S(=O)(=O)c1ccc(C(=O)O)cc1	125%

Sample 2
Host: human
Matrix: microsomes or S9
Concentration: 2 µM
Time: 0.5 h
SMILES	remaining compound [%]
CC(NNc1ccccc1)=C1C(=O)NC(=O)NC1=O	99
Cc1ccc(C[C@H](NCc2ccccc2)c2cccs2)cc1	0.279
O=C(CCc1ccsc1)Nc1ccc2c(c1)CNCC2	95.7

Sample 3
SMILES: O=C1CCC(N2Cc3c(ccc4c3OCC43CCN(Cc4ccccc4)CC3)C2=O)C(=O)N1 (centres unmarked)
Matrix: plasma
host	route	dose	time	plasma concentration
male ICR mice	intravenous	1 mg/kg	24 h	not detected
Sprague Dawley rat, male	oral	3 mg/kg	8 h	33.2 ng/mL and 28.4 ng/mL
Sprague Dawley rat, male	oral	3 mg/kg	2 h	303 ng/mL and 131 ng/mL and 113 ng/mL
male ICR mice	oral	3 mg/kg	0.25 h	235 ng/mL
male ICR mice	oral	3 mg/kg	0.5 h	355 ng/mL
male ICR mice	intravenous	1 mg/kg	0.25 h	199 ng/mL
Sprague Dawley rat, male	intravenous	1 mg/kg	0.25 h	339 ng/mL and 351 ng/mL
male ICR mice	intravenous	1 mg/kg	4 h	19.1 ng/mL
male ICR mice	oral	3 mg/kg	1 h	308 ng/mL
male ICR mice	intravenous	1 mg/kg	0.083 h	320 ng/mL
ICR mouse, male	intravenous	1 mg/kg	4 h	29.5 ng/mL and 16.9 ng/mL
ICR mouse, male	oral	3 mg/kg	0.083 h	65 ng/mL and 93.5 ng/mL
ICR mouse, male	oral	3 mg/kg	8 h	48.3 ng/mL and 10.8 ng/mL and 15.4 ng/mL
rat	oral	3 mg/kg	24 h	not detected
Sprague Dawley rat, male	oral	3 mg/kg	0.083 h	1.83 ng/mL and 3.03 ng/mL and 5.35 ng/mL

Sample 4
Structure (SMILES): CNC(=O)c1ccc(-c2cnn3ccc(C(=O)N(C)c4ccc(Cl)c(C(=O)OC)c4)cc23)cc1
Matrix: plasma
Route: oral
host	dose	time	setting	AUC
female C57BL/6 mouse	10 mg/kg			0.019 µM·h
beagle dog	50 mg/kg/day		multiple doses	120 ng·h/mL
Wistar rat, both sexes	1000 mg/kg/day	2 weeks	GLP toxicology study	18.6 ng·h/mL
beagle dog	1000 mg/kg/day		multiple doses	634 ng·h/mL

Single results of other studies
Effect on: cell-free assay
SMILES	target	technique	concentration	endpoint	result
CC1=C(C#N)C(c2ccc3c(c2)c(NC(=O)c2ccccc2C)nn3C)C(C#N)=C(C)N1	CDPK1 (Plasmodium falciparum, UniProt P62344)	competition with immobilised ligand	1 µM	remaining binding	98%
Cc1cc(-n2nc(Cc3cc(F)cc(C(F)(F)F)c3)nc2C)ccc1C(N)=O	HTR2A (Homo sapiens, UniProt P28223)		10 µM	inhibition	10.5%
O=C(NCc1ncc(C(F)(F)F)cc1Cl)c1ccc2c(c1)C1(CCS(=O)(=O)CC1)[C@H](C1CC1)N2S(=O)(=O)c1ccc(F)cc1	PRKACB (Homo sapiens, UniProt P22694)	competition with immobilised ligand	1 µM	remaining binding	96%

Excerpt of the above (sample 3):
host	route	dose	time	plasma concentration
ICR mouse, male	oral	3 mg/kg	0.083 h	65 ng/mL and 93.5 ng/mL
ICR mouse, male	oral	3 mg/kg	8 h	48.3 ng/mL and 10.8 ng/mL and 15.4 ng/mL
rat	oral	3 mg/kg	24 h	not detected
